Assay results collected from several papers.
Each line is one published result; not all experiments were run side by side. Several values in a cell are separate wells, animals, samples, runs or records. ± marks the error that the study gave.
Chain of UniProt P11388 (whole entry, looked up): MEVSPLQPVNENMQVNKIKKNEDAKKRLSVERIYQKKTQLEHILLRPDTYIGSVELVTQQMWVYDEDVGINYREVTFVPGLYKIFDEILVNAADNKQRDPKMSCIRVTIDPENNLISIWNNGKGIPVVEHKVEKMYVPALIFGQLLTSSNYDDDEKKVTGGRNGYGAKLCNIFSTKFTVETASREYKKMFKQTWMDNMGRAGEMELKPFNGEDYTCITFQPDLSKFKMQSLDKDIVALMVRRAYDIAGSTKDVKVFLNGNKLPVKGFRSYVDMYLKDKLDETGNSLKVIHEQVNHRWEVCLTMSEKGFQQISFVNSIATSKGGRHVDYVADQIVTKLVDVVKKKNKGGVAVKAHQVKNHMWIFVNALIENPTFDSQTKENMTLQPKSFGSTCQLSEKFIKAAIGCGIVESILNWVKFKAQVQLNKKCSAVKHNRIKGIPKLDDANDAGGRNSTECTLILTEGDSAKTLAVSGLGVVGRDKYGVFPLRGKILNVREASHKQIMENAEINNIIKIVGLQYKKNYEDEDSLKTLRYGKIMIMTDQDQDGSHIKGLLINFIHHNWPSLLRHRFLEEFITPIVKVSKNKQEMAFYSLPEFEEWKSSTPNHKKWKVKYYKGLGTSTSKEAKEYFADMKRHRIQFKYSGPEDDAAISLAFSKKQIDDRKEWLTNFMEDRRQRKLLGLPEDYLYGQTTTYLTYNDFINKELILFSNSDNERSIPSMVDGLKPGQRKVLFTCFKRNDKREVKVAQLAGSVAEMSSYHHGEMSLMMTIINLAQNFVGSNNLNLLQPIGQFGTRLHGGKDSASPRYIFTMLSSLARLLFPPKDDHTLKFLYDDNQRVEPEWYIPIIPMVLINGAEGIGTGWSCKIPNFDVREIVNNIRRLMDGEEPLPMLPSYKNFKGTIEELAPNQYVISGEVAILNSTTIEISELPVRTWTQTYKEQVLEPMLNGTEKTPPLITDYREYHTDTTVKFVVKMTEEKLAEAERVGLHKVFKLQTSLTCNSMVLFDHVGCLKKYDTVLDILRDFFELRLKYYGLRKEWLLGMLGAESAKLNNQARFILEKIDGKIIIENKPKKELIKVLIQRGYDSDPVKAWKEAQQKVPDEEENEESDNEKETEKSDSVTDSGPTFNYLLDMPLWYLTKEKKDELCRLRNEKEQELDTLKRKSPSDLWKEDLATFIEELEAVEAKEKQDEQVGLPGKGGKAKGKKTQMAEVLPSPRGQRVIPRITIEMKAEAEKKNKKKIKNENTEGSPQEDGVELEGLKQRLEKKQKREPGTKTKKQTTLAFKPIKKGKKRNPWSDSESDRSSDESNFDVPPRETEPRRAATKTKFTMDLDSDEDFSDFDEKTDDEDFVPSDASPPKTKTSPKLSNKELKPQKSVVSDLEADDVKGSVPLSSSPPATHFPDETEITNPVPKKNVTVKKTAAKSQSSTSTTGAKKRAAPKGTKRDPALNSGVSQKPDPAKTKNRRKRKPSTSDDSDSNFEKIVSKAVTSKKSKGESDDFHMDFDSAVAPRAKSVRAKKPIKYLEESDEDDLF

With `CC1COc2ccccc2N1C(=O)C(Cl)Cl` (stereo not shown) the remaining compound was 68 ± 1% (carboxylesterase; female rhesus monkey liver microsomes; 5 µM, 30 min, pH 7.4, without NADPH).
With `O=C(O)c1cccnc1Nc1cccc(C(F)(F)F)c1` the remaining activity was 49.8% (vericiguat glucuronidation, inhibitor, measured: metabolite M-1 formation; human liver microsomes; 5.0 µM; baseline: no inhibitor).
For `COC(=O)Nc1c(N)nc(-c2nn(Cc3ccccc3F)c3ncc(F)cc23)nc1N`, “seated SBP maximum decrease” read -4.8 mmHg (healthy white men; dose not given, day 13, 312 h, LS mean difference, added: sildenafil 25 mg; baseline: placebo).
For `O=C(CCCCCCC(=O)Nc1ccccc1)NO`, the percent change was -3.9% and -4.2% and -4.3% and -2.1% and -1.2% and 11.5% (BCRP transport function, measured: pheophorbide A accumulation; human, leukaemic blasts ex vivo; concentration not given, 3 h, added: Ko143 10 µM; baseline: without Ko143).
For `OC[C@H]1O[C@@H](O[C@@H]2[C@@H](O)[C@H](O[C@@H]3[C@@H](O)[C@H](O[C@@H]4[C@@H](O)[C@H](O[C@@H]5[C@@H](O)[C@H](O[C@H]6[C@H](O)[C@@H](CO)OC(O)[C@@H]6O)O[C@H](CO)[C@H]5O)O[C@H](CO)[C@H]4O)O[C@H](CO)[C@H]3O)O[C@H](CO)[C@H]2O)[C@H](O)[C@@H](O)[C@@H]1O` (stereo partly shown), the -TΔS was 14.9 kcal/mol (Bacteroides thetaiotaomicron; binding, ITC; pH 7.0, 25 °C, middle domain).
`COC(=O)N[C@H](C(=O)N[C@@H](Cc1ccccc1)[C@@H](O)CN(Cc1ccc(-c2ccccn2)cc1)NC(=O)[C@@H](NC(=O)OC)C(C)(C)C)C(C)(C)C` gave a remaining activity of 75% (vericiguat glucuronidation, inhibitor, measured: metabolite M-1 formation; human liver microsomes; 5.0 µM; baseline: no inhibitor).
`Fc1ccccc1Cc1nc(-c2nc(C(F)(F)F)n[nH]2)cn2ccnc12`: “delayed maze test moves” 0.3 (healthy volunteers; 10 mg, single ascending dose, unit not given; baseline: placebo).
`C[C@@H]1C[C@H]2O[C@@]3(O[C@@H]2C(C)(C)O)[C@H](O)[C@@]2(C)[C@@H]4CC[C@H]5C(C)(C)[C@@H](O[C@@H]6OC[C@@H](O)[C@H](O)[C@H]6O)CC[C@@]56C[C@@]46CC[C@]2(C)[C@@H]13`: activity call “active” (agonist, qPCR in vivo, measured: Shp and Bsep mRNA; Oryzias latipes; dose not given).
With `CO/N=C(\C(=O)N[C@@H]1C(=O)N2C(C(=O)O)=C(COC(C)=O)CS[C@H]12)c1csc(N)n1` the MIC was over 16 µg/mL (Salmonella enterica serovar Choleraesuis; broth microdilution; clinical isolate RKI-No 532/14-1).
For `COc1cc([C@@H]2c3cc4c(cc3[C@@H](O[C@@H]3O[C@@H]5CO[C@@H](C)O[C@H]5[C@H](O)[C@H]3O)[C@H]3COC(=O)[C@H]23)OCO4)cc(OC)c1O`, the linear DNA was 13.8% (DNA topoisomerase 2-alpha (TOP2A, Homo sapiens, UniProt P11388); DNA cleavage; 12.5 µM, replicate 2).
Under activity call, `CCCCCCCC(=O)OCC(COC(=O)CCCCCCC)OC(=O)CCCCCCC` is recorded as “active” (antagonist, qPCR in vivo, measured: Shp and Bsep mRNA; Oryzias latipes; dose not given).
`N#CCC1CCN(c2nc(Nc3ccc(N4CCC(O)CC4)cc3)c3c(=O)[nH]ncc3n2)CC1` — result for “serum level change”: -1.5 (Olink multiplex, measured: CD163; human, serum; 80 mg, day 29, unit not given; baseline: placebo).
`Cc1cccc(Nc2ccccc2C(=O)O)c1C` gave a remaining activity of 73% (vericiguat glucuronidation, inhibitor, measured: metabolite M-1 formation; human kidney microsomes; 10.0 µM; baseline: no inhibitor).

A few entries again:
For `COc1cc([C@@H]2c3cc4c(cc3[C@@H](O[C@@H]3O[C@@H]5CO[C@@H](C)O[C@H]5[C@H](O)[C@H]3O)[C@H]3COC(=O)[C@H]23)OCO4)cc(OC)c1O`, the linear DNA was 13.8% (DNA topoisomerase 2-alpha (TOP2A, Homo sapiens, UniProt P11388); DNA cleavage; 12.5 µM, replicate 2).
